Earlier results as cited in several papers.
Compare with care: the assays were run in different laboratories. Values after ≈ are worked out from the molar mass of the structure shown.
UniProt Q9BYT3, sequence (whole entry, looked up): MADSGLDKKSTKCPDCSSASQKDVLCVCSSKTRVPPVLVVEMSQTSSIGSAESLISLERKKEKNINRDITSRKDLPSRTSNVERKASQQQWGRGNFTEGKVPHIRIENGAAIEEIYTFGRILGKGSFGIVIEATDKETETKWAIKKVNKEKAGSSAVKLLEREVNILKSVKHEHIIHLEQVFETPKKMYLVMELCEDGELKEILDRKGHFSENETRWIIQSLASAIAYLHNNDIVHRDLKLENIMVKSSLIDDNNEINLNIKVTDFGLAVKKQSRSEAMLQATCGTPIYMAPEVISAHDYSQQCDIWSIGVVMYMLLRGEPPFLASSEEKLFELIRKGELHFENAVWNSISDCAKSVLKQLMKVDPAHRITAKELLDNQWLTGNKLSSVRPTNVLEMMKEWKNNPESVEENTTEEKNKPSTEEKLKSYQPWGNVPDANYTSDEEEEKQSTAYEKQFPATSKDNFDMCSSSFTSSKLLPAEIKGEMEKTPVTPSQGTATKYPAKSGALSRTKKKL

`Cc1cnc(N2CC3(CCOCC3)C2)c(C(=O)Nc2ccc(C(=O)N3CCc4cc(C(=O)Nc5c(C)cccc5F)sc4-c4ccccc43)cc2)c1` — result for “lung to plasma ratio”: about 15400 (rat; dose not given; reference: lung over plasma).
`Cc1cn([C@H]2C[C@H](N=[N+]=[N-])[C@@H](CO)O2)c(=O)[nH]c1=O` has an oral bioavailability of 92% (mouse; 60 mg/kg).
`Cc1c(F)c(N2CCNC(C)C2)cc2c1c(=O)c(C(=O)O)cn2C1CC1` (stereo not drawn) has a free Cmax of 4150 nM (human).
For `C=CC(=O)N(C)CCOc1c(N)ncnc1-c1cc(F)cc(NC(=O)c2ccc(C3CC3)cc2F)c1C`, the AUC(0-last) was 977 ng·h/mL (human; 400 mg once daily).
With `COCCc1ccc(OCC(O)CNC(C)C)cc1` (stereo not drawn) the Vd was 300 to 350 L (human).
The solubility of `C=C(c1ccc(C(=O)O)cc1)c1cc2c(cc1C)C(C)(C)CCC2(C)C` is reported as 6.97 µg/mL (≈ 20 µM) (FaSSIF; literature value).
The dose-normalized Cmax of `Oc1ccc(C(c2ccc(O)cc2)(C(F)(F)F)C(F)(F)F)cc1` is reported as 3.1 (nmol/mL)/(mmol/kg) (B6C3F1/N mouse, female; oral gavage, 34 mg/kg).
The t_half of `COc1cc(Cc2cnc(N)nc2N)cc(OC)c1OC` is reported as 11.3 h (human).
`COc1cc(N2CCC(N3CCN(C)CC3)CC2)ccc1Nc1ncc(Cl)c(Nc2ccccc2P(C)(C)=O)n1` — result for “Cmax at steady state”: 1150 ng/mL (patients with cancer, plasma; dose not given, geometric mean).
With `C#C[C@]1(O)CC[C@H]2[C@@H]3CCC4=CC(=NO)CC[C@@H]4[C@H]3CC[C@@]21CC` (mixture of isomers) the Cmax, mean was 0.779 ng/mL (human, fasted; 0.18 mg norgestimate, single dose).
Under “decreased platelet count incidence”, `CCc1c(N(CC)C2CCOCC2)cc2oc(CN3CCCCC3)cc2c1C(=O)NCc1c(C)cc(C)[nH]c1=O` is recorded as 39% (patients; dose not given).
`Cc1nc(Nc2ncc(C(=O)Nc3c(C)cccc3Cl)s2)cc(N2CCN(CCO)CC2)n1` gave a solubility of under 1000 µg/mL (water).
With `CC(=O)Oc1ccccc1C(=O)Nc1ncc([N+](=O)[O-])s1` the unbound Cmax was 30 nM (plasma; concentration not given).
`Nc1cccc2c1C(=O)N(C1CCC(=O)NC1=O)C2=O` (stereo not drawn): “incidence of grade 3 anemia” 17% (relapsed refractory multiple myeloma patients; dose not given, grade up to 4).
With `C[C@@H](c1ncncc1F)[C@](O)(Cn1cncn1)c1ccc(F)cc1F` the solubility was under 1000 µg/mL (water).
With `Cn1c(Cn2ccc(C(F)(F)F)c(Oc3cc(Cl)cc(C#N)c3)c2=O)n[nH]c1=O` the Cmin reduction was 97% (human; dose not given, strong CYP3A4 induction, together with: rifampin).
`COc1ccc(Cl)cc1C(=O)NCCc1ccc(S(=O)(=O)NC(=O)NC2CCCCC2)cc1` has a solubility of 4.45 µg/mL (≈ 9 µM) (FaSSIF; literature value).
The oral bioavailability of `Cc1cn([C@H]2C=C[C@@H](CO)O2)c(=O)[nH]c1=O` is reported as 100% (human).
The AUC(0-24 h) of `COCCc1ccc(OCC(O)CNC(C)C)cc1` (stereo not drawn) is reported as 351 ng·h/mL (human fasted; 50 mg multiple doses, day 5, mean).
For `CNCc1cc(-c2ccccc2F)n(S(=O)(=O)c2cccnc2)c1`, the Tmax was 1.07 h (human; 20 mg, multiple dose).
For `Cc1ccc2c(c1)c1c(n2CCc2ccc(C)nc2)CCN(C)C1.Cl.Cl`, the solubility was under 1000 µg/mL (water).
`O=C(O)Cc1ccccc1Nc1c(Cl)cccc1Cl` gave a free Cmax of 35.8 nM (plasma).
`O=C(O)c1cccnc1Nc1cccc(C(F)(F)F)c1` has a Cmax of 25200 nM (plasma; concentration not given, total, steady state).
With `FC(F)(F)c1ccc(CNc2ccc(Cc3c[nH]c4ncc(Cl)cc34)cn2)cn1` the AUC(0-6 h) was 6280 ng·h/mL (human, plasma; 1000 mg/day, day 1, observed mean).
The CL/F of `COc1cc(N2CCC3(CCN(C)CC3)CC2)ccc1Nc1ncc(Cl)c(Nc2ccccc2P(C)(C)=O)n1` is reported as 15.8 to 27.9 L/h (NSCLC patients; oral, 30 300 mg multiple doses).
`CC(C)c1nc(CN(C)C(=O)N[C@H](C(=O)N[C@@H](Cc2ccccc2)C[C@H](O)[C@H](Cc2ccccc2)NC(=O)OCc2cncs2)C(C)C)cs1` has a Cmax of 15000 nM (plasma; concentration not given, total, steady state).
For `Nc1nc2cc(-c3ccc4ncc(C(=O)N5CCOCC5)n4c3)ccc2o1`, “well tolerated dose” read at most 50 mg/kg/day (monkey).
For `CC(C)C[C@H](NC(=O)[C@H](Cc1ccccc1)NC(=O)c1cnccn1)B(O)O`, the diarrhoea incidence was 51% (human; concentration not given, clinical).
`CN(C)C(=O)c1cc2cnc(Nc3ccc(N4CCNCC4)cn3)nc2n1C1CCCC1` — result for “unbound tumour concentration”: 2.15 µmol/kg (human recurrent glioblastoma, contrast-enhancing tumour; dose not given).
`C=C(F)C(=O)N1CCN(c2nc(OC[C@@H]3CCCN3C)nc3c2CCN(c2cccc4cccc(Cl)c24)C3)C[C@@H]1CC#N` — result for “volume of distribution”: about 942 L (patients, advanced solid tumours; dose not given).
`CCCOc1ccc(S(=O)(=O)N2CCN(CCO)CC2)cc1-c1nc2c(CCC)cn(CC)c2c(=O)[nH]1` — result for “pulse rate change”: 5.7 bpm (healthy male volunteers; dose not given, without alcohol).
`CC(=O)O[C@H]1C(=O)[C@@]2(C)[C@H]([C@H](OC(=O)c3ccccc3)[C@]3(O)C[C@H](OC(=O)[C@H](O)[C@@H](NC(=O)c4ccccc4)c4ccccc4)C(C)=C1C3(C)C)[C@]1(OC(C)=O)CO[C@@H]1C[C@@H]2O` — result for “grade 4 peripheral neuropathy incidence”: 0% (advanced urothelial cancer patients; 80 mg/m2 weekly, monotherapy).
`CC(C)(CO)c1cc2cc(NC(=O)C3(c4ccc5c(c4)OC(F)(F)O5)CC3)c(F)cc2n1C[C@@H](O)CO` gave a logP octanol/water of 3.6.
`CN(C)C(=O)c1cc2cnc(Nc3ccc(N4CCNCC4)cn3)nc2n1C1CCCC1` gave an oral bioavailability of 17% (cynomolgus monkey).
For `CNC(C)C1CCC(N)C(OC2C(N)CC(N)C(OC3OCC(C)(O)C(NC)C3O)C2O)O1` (stereo not drawn), the MIC was 4 µg/mL (≈ 8.38 µM) (Enterobacter cloacae; clinical isolate RKI-No_34/16).
`C/C(O)=C(\C#N)C(=O)Nc1ccc(C(F)(F)F)cc1` has a crossover pressure of 175 to 195 bar (supercritical CO2).
`CNCC[C@@H](Oc1ccccc1C)c1ccccc1` gave a free Cmax of 55.7 nM (plasma; literature data).
`C[Si](C)(C)O[Si](C)(C)O[Si](C)(C)O[Si](C)(C)C` has a log KOW of 5.4 (HPLC retention correlation; 1-octanol/water; 25 °C).
With `CC1(C)S[C@@H]2[C@H](NC(=O)[C@H](N)c3ccccc3)C(=O)N2[C@H]1C(=O)O` the MIC was over 16 µg/mL (Enterobacter cloacae; clinical isolate RKI-No_33/16).
`Cc1cc(C)c(CNC(=O)c2cc(Cl)c3c(c2C)O[C@@](C)([C@H]2CC[C@H](N(C)C)CC2)O3)c(=O)[nH]1` — result for “total AUCinf increase”: about 4 fold (human; dose not given, together with: itraconazole, strong CYP3A and P-gp inhibitor; reference: without itraconazole).
`Cc1cc(-c2ncc(CC(=O)Nc3ccc(-c4cnccn4)cn3)cc2C)ccn1`: “incidence of anorexia” about 25% (human, advanced cancer; dose not given, phase I trial; reference: subjects).
With `Cc1nsc(-c2nnc3n2CCN(C(=O)c2ccc(F)cc2)[C@@H]3C)n1` the effective half-life was 9.6 h (women; oral).
`O=C(c1cccnc1-c1ccncc1)N1CCC(O)(Cc2ccccc2)CC1` — result for “unchanged drug excreted in urine”: 0.1% (human, urine; oral, 300 mg single dose; reference: dose).
For `CC(C(=O)O)c1ccc(-c2ccccc2)c(F)c1` (stereo not drawn), the solubility was under 1000 µg/mL (water).
Under “storage stability time”, `O=C(O)[C@H]1/C(=C/CO)O[C@@H]2CC(=O)N21` is recorded as at least 6 months (plasma; -80 °C).
With `O=C1NCCN1CCN1CCC(c2cn(-c3ccc(F)cc3)c3ccc(Cl)cc23)CC1` the free Cmax was 2 nM (human).
With `CCOc1nc2cccc(C(=O)O)c2n1Cc1ccc(-c2ccccc2-c2nnn[nH]2)cc1` the solubility was under 1000 µg/mL (water).
For `Cc1cn([C@@H]2C[C@@H](O)[C@H](CO)O2)c(=O)[nH]c1=O`, the oral bioavailability was 68% (human; 600 mg).
`Nc1cc(C(F)(F)F)c(-c2nc(N3CCOCC3)nc(N3CCOCC3)n2)cn1` gave a remaining activity of 66% (STK33 (Homo sapiens, UniProt Q9BYT3); enzyme activity; 10 µM; reference: untreated).
With `Nc1ccc(S(=O)(=O)NC(=O)c2ccccc2)cc1` the crossover pressure was 160 to 180 bar (supercritical CO2).
With `CC(C)N(CCCCOCC(=O)NS(C)(=O)=O)c1cnc(-c2ccccc2)c(-c2ccccc2)n1` the fecal excretion was 93% (healthy human, feces; reference: dose).

A few entries again:
`CCCOc1ccc(S(=O)(=O)N2CCN(CCO)CC2)cc1-c1nc2c(CCC)cn(CC)c2c(=O)[nH]1` — result for “pulse rate change”: 5.7 bpm (healthy male volunteers; dose not given, without alcohol).
`CC(=O)O[C@H]1C(=O)[C@@]2(C)[C@H]([C@H](OC(=O)c3ccccc3)[C@]3(O)C[C@H](OC(=O)[C@H](O)[C@@H](NC(=O)c4ccccc4)c4ccccc4)C(C)=C1C3(C)C)[C@]1(OC(C)=O)CO[C@@H]1C[C@@H]2O` — result for “grade 4 peripheral neuropathy incidence”: 0% (advanced urothelial cancer patients; 80 mg/m2 weekly, monotherapy).
`CC(C)(CO)c1cc2cc(NC(=O)C3(c4ccc5c(c4)OC(F)(F)O5)CC3)c(F)cc2n1C[C@@H](O)CO` gave a logP octanol/water of 3.6.
`CN(C)C(=O)c1cc2cnc(Nc3ccc(N4CCNCC4)cn3)nc2n1C1CCCC1` gave an oral bioavailability of 17% (cynomolgus monkey).
For `CNC(C)C1CCC(N)C(OC2C(N)CC(N)C(OC3OCC(C)(O)C(NC)C3O)C2O)O1` (stereo not drawn), the MIC was 4 µg/mL (≈ 8.38 µM) (Enterobacter cloacae; clinical isolate RKI-No_34/16).
`C/C(O)=C(\C#N)C(=O)Nc1ccc(C(F)(F)F)cc1` has a crossover pressure of 175 to 195 bar (supercritical CO2).
